Results collected from several papers.
Protocols differ between the studies behind these lines. Several values in a cell are separate wells, animals, samples, runs or records. Converted amounts (≈) assume the structure as drawn.

| SMILES | target or system | test | system | conditions | scale | measurement | result |
| --- | --- | --- | --- | --- | --- | --- | --- |
| Cc1c([N+](=O)[O-])oc2ccc3ccccc3c12 | Mycobacterium bovis BCG | – | 1173 P2 | – | – | MIC90 | 2 µg/mL (≈ 8.8 µM) |
| COCCC1=C(C(=O)OC)C(c2ccc(Cl)cc2)C2=C(CC(c3cc(OC)c(OC)c(OC)c3)CC2=O)N1 (single isomer, unassigned) | J774.A1 | cytotoxicity | – | – | – | EC50 | > 20 µM |
| N#CC(C#N)=NNc1cccc(Cl)c1 | Neisseria gonorrhoeae | broth microdilution | ATCC 49226 | – | – | MIC | 1 µg/mL (≈ 4.89 µM) |
| CC[C@H](C)[C@H](NC(=O)[C@H](C)NC(=O)[C@H](CCCCN)NC(=O)[C@H](CC(C)C)NC(=O)[C@H](C)NC(=O)[C@@H](NC(=O)[C@H](Cc1c[nH]cn1)NC(=O)[C@H](CC(C)C)NC(=O)[C@@H](NC(=O)[C@@H](NC(=O)[C@H](CCCCN)NC(=O)[C@H](C)NC(=O)[C@H](C)NC(=O)[C@H](CO)NC(=O)[C@H](CCCCN)NC(=O)[C@H](Cc1ccccc1)NC(=O)[C@@H](NC(=O)[C@H](CCCCN)NC(=O)[C@H](CC(C)C)NC(=O)[C@H](Cc1ccccc1)NC(=O)[C@H](CO)NC(=O)[C@H](CCCCN)NC(=O)[C@H](Cc1c[nH]c2ccccc12)NC(=O)[C@H](CCCCN)NC(C)=O)[C@@H](C)O)[C@@H](C)O)C(C)C)[C@@H](C)O)C(=O)N[C@@H](CO)C(=O)N[C@@H](CO)C(N)=O | Klebsiella pneumoniae | – | ATCC 1706 | – | – | MBC90 | 16 µg/mL (≈ 5.45 µM) |
| CC/C(=C(\c1ccc(O)cc1)c1ccc(OCCN(C)C)cc1)c1ccccc1 | MCF7 3xERE-luc, steroid-deprived | ERE luciferase reporter, agonist | – | – | – | EC50 | 0.02 µM |
| COc1cc(CCC[P+](c2ccccc2)(c2ccccc2)c2ccccc2)c(OC)c2c1OCO2.[I-] | Hs-578T | SRB | – | – | – | GI50 | -5.76 log M |
| CC[C@H](C)[C@@H]1NC(=O)[C@@H]2CCCN2C(=O)[C@H](CC(C)C)NC(=O)[C@H](CC(C)C)NC(=O)CNC(=O)[C@@H](NC(=O)[C@@H](NC(=O)[C@H](CC(=O)O)NC(=O)CNC(=O)[C@@H](NC(=O)[C@H](C)NC(=O)CNC(=O)[C@H](CCCCN)NC(=O)[C@H](CC(C)C)NC(=O)[C@H](CC(C)C)NC(=O)[C@H](CCCCN)NC(=O)CNC(=O)[C@@H](NC(=O)[C@@H](N)CC(C)C)C(C)C)C(C)C)C(C)C)CSSC[C@@H](C(=O)O)NC1=O | – | RNA-seq, refers to: Nat1 | mouse, traumatic brain injury model, frontal cortex and hippocampus | dose not given | reference: TBI alone | log2 fold change | 1.23 |
| Cn1c(=O)ccc2ccc(F)c(CCNC[C@H]3CN(c4cnc5c(n4)NC(=O)CO5)C(=O)O3)c21 | Haemophilus influenzae | – | – | – | – | MIC50 | < 0.015 µg/mL |
| CS(=O)(=O)CCCn1c(Cn2c(=O)n(CC(F)(F)F)c3ccncc32)cc2cc(Cl)ccc21 | respiratory syncytial virus | RT-qPCR | hospitalized infants 1-24 months, nasal swab | oral, 2, 1.5 or 1 mg/kg daily, day 5, low dose by age cohort | reference: placebo | LS mean difference vs placebo | -1.55 log10 copies/mL |
| CC1(C)C(C(=O)c2cn(CCCCCF)c3ccccc23)C1(C)C | – | Δ9-THC discrimination | C57BL/6J male mice | ip | – | dose for full substitution | 3 mg/kg |
| O=C(Cc1cccc(I)c1)N[C@H]1CCOC1=O | ExpR1 (Pectobacterium carotovorum) | cellulase activity, antagonist | Pectobacterium carotovorum, single-ExpR1 strain | 5 µM, 4 h, together with: OHHL 5 µM | – | inhibition | 83% |
| CN1CCN(C2(CNC3CCN(c4cccc(-c5cc6cc(F)ccc6[nH]5)c4)CC3)CCC2)CC1 | 786-0 | – | – | – | – | TGI | 3.11 µM |
| C#CC[C@@H](N)C(=O)N[C@H](CO)C(=O)N[C@@H](C(=O)N[C@H](CO)C(=O)N[C@H](CCC(=O)O)C(=O)N[C@@H](C(=O)N[C@H](CCC(N)=O)C(=O)N[C@H](CC(C)C)C(=O)N[C@H](CCSC)C(=O)N[C@H](Cc1c[nH]cn1)C(=O)N[C@H](CC(N)=O)C(=O)N[C@H](CC(C)C)C(=O)NCC(=O)N[C@H](CCCCN)C(=O)N[C@H](Cc1c[nH]cn1)C(=O)N[C@H](CC(C)C)C(=O)N[C@H](CC(N)=O)C(=O)N[C@H](CO)C(=O)N[C@H](CCSC)C(=O)N[C@H](CCC(=O)O)C(=O)N[C@H](CCCNC(=N)N)C(=O)N[C@@H](C(=O)N[C@H](Cc1ccc(O)cc1)C(=O)N[C@H](Cc1c[nH]c2ccccc12)C(=O)N[C@H](CC(C)C)C(=O)N[C@H](CCCNC(=N)N)C(=O)N[C@H](Cc1ccccc1)C(=O)N[C@H](CCCCN)C(=O)N[C@H](CC(C)C)C(=O)N[C@H](CCC(N)=O)C(=O)N[C@H](C)C(=O)N[C@@H](C(N)=O)C(C)C)C(C)C)[C@H](C)CC)C(C)C | hemagglutinin influenza A/California/07/2009 H1N1 | – | – | – | – | IC50 | 33 µM |
| O=C1CCP(=S)(c2ccccc2)CC1 | PC-3 | MTT | – | 72 h | reference: IC50 HaCaT over IC50 PC-3 | selectivity index | 2.4 |
| COc1c(CCC[P+](c2ccccc2)(c2ccccc2)c2ccccc2)cc2c(c1OC)OCO2.[I-] | UACC-62 | SRB | – | – | – | LC50 | -4.48 log M |
| CC[C@@H](NC(=O)CNC(=O)[C@@H](CC(C)C)NC(=O)CNC(=O)[C@H](N)CCC(N)=O)C(=O)N[C@H](CC(=O)O)C(=O)N[C@H](CCC(=O)O)C(=O)N[C@H](CCSC)C(=O)N[C@H](CC(C)C)C(=O)N[C@H](CCC(N)=O)C(=O)NCC(=O)N[C@H](Cc1ccccc1)C(=O)N[C@H](C)C(=O)N[C@@H](C(=O)N[C@H](C)C(=O)N[C@@H](C(=O)N[C@H](CCCCN)C(=O)N[C@H](CCSC)C(=O)NCC(=O)N[C@H](C)C(=O)N[C@@H](C(=O)N[C@H](CCCCN)C(=O)N[C@H](C)C(=O)N[C@H](CC(=O)O)C(=O)O)[C@H](C)O)C(C)C)C(C)C | hemagglutinin influenza A/California/07/2009 H1N1 | – | – | – | – | IC50 | 81 µM |
| C[C@H]1O[C@@H](O[C@H]2CC[C@@]3(C)[C@@H](CC[C@]4(C)[C@@H]3C=C[C@]35OC[C@@]6(CCC(C)(C)C[C@H]63)[C@@H](O)C[C@]54C)[C@]2(C)CO)[C@H](O)[C@@H](O[C@@H]2O[C@H](CO)[C@@H](O)[C@H](O)[C@H]2O)[C@H]1O | – | – | Mus musculus, pair-fed, AAV8-TBG-SIRT1 shRNA hepatic SIRT1 knockdown, serum | oral, high dose, 5 h | – | triglycerides | 0.765 mM and 0.567 mM and 0.679 mM and 1.17 mM and 0.984 mM and 1.14 mM |
| O=C(Cc1ccccc1)NC1CCOC1=O (stereo not drawn) | ExpR1 (Pectobacterium carotovorum) | cellulase activity, antagonist | Pectobacterium carotovorum, single-ExpR1 strain | 5 µM, 4 h, together with: OHHL 5 µM | – | inhibition | 4% |
| CCCCC1(CCCC)CN(c2ccccc2)c2cc(SC)c(OCC(=O)N[C@@H](C(=O)NCC(=O)O)c3ccccc3)cc2S(=O)(=O)C1 | – | refers to: HDL cholesterol | human, serum | 2.5 mg once daily, day 1 | – | serum HDL-C | 57 mg/dL |
| O=C(Cc1cccc(Br)c1)N[C@H]1CCOC1=O | ExpR1 (Pectobacterium carotovorum) | cellulase activity, antagonist | Pectobacterium carotovorum, single-ExpR1 strain | 5 µM, 4 h, together with: OHHL 5 µM | – | inhibition | 73% |
| COc1ccc(-n2nc(C(C)=O)s/c2=N\N=C(/C)c2ccc(NC(C)=O)cc2)cc1 | MCF7 | – | – | 0.078 µM | – | viability | 46.1% |

Excerpt of the above:
| SMILES | target or system | test | system | conditions | scale | measurement | result |
| --- | --- | --- | --- | --- | --- | --- | --- |
| CS(=O)(=O)CCCn1c(Cn2c(=O)n(CC(F)(F)F)c3ccncc32)cc2cc(Cl)ccc21 | respiratory syncytial virus | RT-qPCR | hospitalized infants 1-24 months, nasal swab | oral, 2, 1.5 or 1 mg/kg daily, day 5, low dose by age cohort | reference: placebo | LS mean difference vs placebo | -1.55 log10 copies/mL |
| CC[C@H](C)[C@@H]1NC(=O)[C@@H]2CCCN2C(=O)[C@H](CC(C)C)NC(=O)[C@H](CC(C)C)NC(=O)CNC(=O)[C@@H](NC(=O)[C@@H](NC(=O)[C@H](CC(=O)O)NC(=O)CNC(=O)[C@@H](NC(=O)[C@H](C)NC(=O)CNC(=O)[C@H](CCCCN)NC(=O)[C@H](CC(C)C)NC(=O)[C@H](CC(C)C)NC(=O)[C@H](CCCCN)NC(=O)CNC(=O)[C@@H](NC(=O)[C@@H](N)CC(C)C)C(C)C)C(C)C)C(C)C)CSSC[C@@H](C(=O)O)NC1=O | – | RNA-seq, refers to: Nat1 | mouse, traumatic brain injury model, frontal cortex and hippocampus | dose not given | reference: TBI alone | log2 fold change | 1.23 |
